Assay results gathered from unrelated publications.
Each line is one published result; not all experiments were run side by side. ± gives the spread as reported.
Target: Muscarinic acetylcholine receptor M4 (CHRM4, Homo sapiens, UniProt P08173)
Chain of UniProt P08173 (whole entry, looked up): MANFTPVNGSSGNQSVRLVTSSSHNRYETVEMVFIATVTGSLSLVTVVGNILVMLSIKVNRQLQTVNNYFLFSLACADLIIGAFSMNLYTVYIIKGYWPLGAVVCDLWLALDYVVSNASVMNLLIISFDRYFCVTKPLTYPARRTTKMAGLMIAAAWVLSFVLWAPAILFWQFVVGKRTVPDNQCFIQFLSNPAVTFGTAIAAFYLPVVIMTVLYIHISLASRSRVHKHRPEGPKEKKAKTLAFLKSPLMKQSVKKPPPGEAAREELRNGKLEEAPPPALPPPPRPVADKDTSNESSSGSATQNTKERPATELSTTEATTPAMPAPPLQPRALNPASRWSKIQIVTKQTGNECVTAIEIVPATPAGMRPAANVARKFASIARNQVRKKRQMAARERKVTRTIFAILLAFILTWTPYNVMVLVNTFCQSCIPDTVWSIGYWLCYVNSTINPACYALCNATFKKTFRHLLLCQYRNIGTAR

For `C=CCn1c(=O)c2ccccc2n2c(SCC(=O)OC)nnc12`, the Emax was 119 ± 4% (receptor activation, agonist; concentration not given, 16 h).
`COc1ccc(C(=O)Nc2c(-c3cccs3)nc3ccccn23)cc1` gave an inhibition of under 50% (ligand displacement, radioligand; 10 µM).
With `O=C1c2sc(-c3ccc(N4CCC(CO)CC4)nc3F)nc2CCN1c1cccnc1` the inhibition was -1% (ligand displacement, radioligand; 1 µM).
For `CNC(=O)C[C@H](Cc1ccc(C#N)cc1)NC(=O)c1cc(-c2ccc(CN[C@H](C)c3ccc(C)cc3)o2)ccc1Cl`, the inhibition was 31% (agonist response, antagonist; human cells; 10 µM, M4 antagonist).
The basal binding of `CCCCCCOc1ccc(C(=O)OCC[N+]2(C)CC=CCC2)cc1` (stereo not shown) is reported as 1.04 ± 0.03 fold (membranes; 1 µM, 15 h, no carbachol; baseline: control).
With `Brc1ccccc1-c1nnc(CSc2nnnn2-c2ccccc2)o1` the inhibition was -12% (ligand displacement, radioligand; 10 µM).
The Emax of `C=CCn1c(=O)c2ccccc2n2c(SC(C(=O)OCC)c3ccccc3)nnc12` (stereo not shown) is reported as 113 ± 1% (receptor activation, agonist; concentration not given, 16 h).
`CCCCOc1ccc(C(=O)OCC[N+]2(C)CC=CCC2)cc1` (stereo not shown) has a basal binding of 1.2 ± 0.07 fold (membranes; 1 µM, 15 h, no carbachol; baseline: control).
`C=CCn1c(=O)c2ccccc2n2c(SC3CCOC3=O)nnc12` (stereo not shown) has an Emax of 114 ± 4% (receptor activation, agonist; concentration not given, 16 h).
The inhibition of `COc1ccc(S(=O)(=O)N2CCc3ccccc3C2)cc1N1CCN(C(=O)c2ccc(F)cc2C(F)(F)F)CC1` is reported as 12.3% (ligand displacement, radioligand; 1 µM).
